Experimental data collected from several papers.
A part holds a random share of what one study measured.

Study 1
Target: Interferon regulatory factor 5, full length, phosphomimetic (IRF5, Homo sapiens, UniProt Q13568-2, residues 1-514, K96S/S451D/S453D/S456D/S462D)
Method: protein-binding microarray
Molecule type: double-stranded DNA, one strand shown
Matrix: in vitro
Concentration: 250 nM
Notes: 60-bp whole probe
Added: salmon DNA 0.4 mg/ml
Relative to: random background probes
Reading: higher = stronger binding
All sequences stand within: GCCTAGCAC … GTGCTAGGTCTTGATTCGCTTGACGCTGCTG
| Strand | log fluorescence [z-score] |
| --- | --- |
| GACGGTCTCCTACTCCTGAC | -0.0418 |
| TCAGATATCTTTTTCCTACT | 0.702 |
| TTAGGTATCGGTTTCGGTCA | 10.5 |
| TCATTTTCATTTTTTTTACT | 3.57 |
| TTAGATGTCAGTATCGATTA | 6.72 |
| GACGAACTTAGTATCGAGAC | 3.04 |
| GACGGTTTCGTTTTCGGGAC | 8.04 |

Study 2
Target: Histone acetyltransferase KAT6A, both winged helices, GST fusion (KAT6A, Homo sapiens, UniProt Q92794, residues 1-181)
Method: protein binding microarray
Molecule type: double-stranded DNA, one strand shown
Matrix: in vitro
Concentration: not given
Notes: 8-mer, flanks averaged, mean of 2 arrays, mostly near background
Relative to: not given
Reading: higher = stronger binding
Target sequence (chain): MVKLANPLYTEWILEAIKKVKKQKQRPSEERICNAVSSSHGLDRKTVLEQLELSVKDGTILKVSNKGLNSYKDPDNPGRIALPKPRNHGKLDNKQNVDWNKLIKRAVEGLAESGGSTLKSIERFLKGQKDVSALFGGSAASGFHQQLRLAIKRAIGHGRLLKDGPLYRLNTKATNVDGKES
| Strand | E-score |
| --- | --- |
| GTAGCTTA | -0.0765 |
| CCGAGGAG | 0.00504 |
| ACACAGTC | -0.107 |
| TATCACCA | -0.0792 |
| CGTACGGA | 0.25 |
| CACACTAC | -0.0235 |
| GCGTGTGA | 0.215 |
| CAGCGCGG | 0.32 |

Study 3
Target: Fragile X messenger ribonucleoprotein 1, C-terminal low-complexity region (Fmr1, Mus musculus, UniProt P35922)
Method: RNA Bind-n-Seq
Molecule type: RNA
Matrix: in vitro
Concentration: 200 nM
Notes: whole 134-nt RNA, ends assumed
Added: 150 mM KCl
Relative to: input library
Reading: higher = stronger binding
All sequences stand within: GGGAGUUCUACAGUCCGACGAUC … UGGAAUUCUCGGGUGUCAAGG
| Strand | log2 enrichment |
| --- | --- |
| UGCACACCGCCUUGCACAUAGCAGAGGCUCCGGGCUCACUCCUUCCUGGUGGGAAAGGAAGAUGCCUGUCCUCUCCGUGGAAGACCCUGG | -1.15 |
| CAAGUCCUGUGCUACACAUCGUAUGUACCGAAUCAAAUUUAAACCCAAAUUUAAAAAAGUAUUAUGUUACGCCGUUCGGAUCUGCACUUC | 0.0629 |
| CACAGACAACACGCACCCAUACAGACACAGAGGGAAGGGGUUGGGAUGGGGACAGGGUGCACAGCAGGGCGGGGUAGGACCCCAGCCCCU | 1.41 |
| UGGGAGGUGGAUUUUGUUUAUUUUUUUAGCUCAUUUCCUGGGGUGGGAAUUUUUUUUUAAUAUGUGUCAUGAAUAAAGUUGUUUUUGAAA | 0.223 |
| CCUGUGCUACACAUCGUAUGUACCGAAUCGGUUUUUUUGGUUUUUUUGGGUUUUUUUGGGAAAGUAUUAUGUUACGCCGUUCGGAUCUGC | -0.681 |
| CAAGUCCUGUGCUACACAUCGUAUGUACCGAAUCGGAAAAAGGUUUGGUUUUUGGAAAGUAUUAUGUUACGCCGUUCGGAUCUGCACUUC | -0.782 |

Other studies, line by line
| Molecule | target | assay | system | conditions | how to read | measurement | result |
| --- | --- | --- | --- | --- | --- | --- | --- |
| PhoQ, residues 284 288 289 292 302 303 GASLAW | PhoP, residues 12 14 15 18 19 NHFRA (Escherichia coli, UniProt P23836) | Sort-seq, refers to: YFP reporter | E. coli | PhoQ-PhoP variant library, added: 10 µM Mg2+ | relative to: high Mg2+ state, higher = stronger signaling | fold induction | 0.633 |

Excerpt of the above (study 1):
| Strand | log fluorescence [z-score] |
| --- | --- |
| TCAGATATCTTTTTCCTACT | 0.702 |
| TTAGGTATCGGTTTCGGTCA | 10.5 |
| TCATTTTCATTTTTTTTACT | 3.57 |
